Earlier results, collected from citations in different studies.
Each line is one published result; not all experiments were run side by side. ± marks the error that the study gave.

Compound | tested on | assay | system | setting | measurement | value
CN1CCN(C(=O)N[C@@H](Cc2ccccc2)C(=O)N[C@H](/C=C/S(=O)(=O)c2ccccc2)CCc2ccccc2)CC1 | SARS-CoV-2 | cytopathic effect |  |  | EC50 | 0.62 µM
Cc1ccc(N)cc1C(=O)N[C@H](C)c1cccc2ccccc12 | SARS-CoV-2 |  |  |  | EC50 | 38 µM
Cc1ccc(N)cc1C(=O)N[C@H](C)c1cccc2ccccc12 | SARS-CoV-2 | viral replication |  |  | EC50 | ~20 µM
O=c1c2ccccc2[se]n1Cc1ccc(Cl)cc1 | SARS-CoV-2 | viral replication, RT-qPCR | Vero |  | EC50 | 1.78 µM
O=P(O)(O)Oc1c2c(c(OP(=O)(O)O)c3c1C1CC3c3cc4c(cc31)C1CC4c3ccccc31)C1CC2c2cc3c(cc21)C1CC3c2ccccc21 | SARS-CoV-2 | pseudoparticle entry |  | spike-pseudotyped lentiviral particles | IC50 | 36 µM
Cc1ccc([Se]c2c(O)cc(O)c3c(=O)c(O)c(-c4ccc(O)c(O)c4)oc23)cc1 | SARS-CoV-2 | viral replication, RT-qPCR | Vero |  | EC50 | 8 µM
Oc1cc(O)c2c(c1)OC(c1ccc(O)c(O)c1)C(O)C2c1c(O)cc(O)c2c1OC(c1ccc(O)c(O)c1)C(O)C2 (centres unmarked) | SARS-CoV-2 | viral replication | Vero |  | IC50 | 36.2 ± 1.53 µM
O=c1c2ccccc2[se]n1-c1cccc(C(F)(F)F)c1 | SARS-CoV-2 | viral replication, RT-qPCR | Vero |  | EC50 | 0.8 µM
Cc1ccc(CNC(=O)c2ccc(F)c(F)c2)cc1C(=O)N[C@H](C)c1cccc2ccccc12 | SARS-CoV-2 |  |  |  | EC50 | 3.8 µM
O=C(Cc1cccnc1)c1cccs1 | Replicase polyprotein 1ab, main protease (rep, Severe acute respiratory syndrome-related coronavirus, UniProt P0C6X7) | inhibitor |  | 100 µM | inhibition | no inhibition
Cc1ccc(CN)cc1C(=O)N[C@H](C)c1cccc2ccccc12 | SARS-CoV-2 |  |  |  | EC50 | 24 µM
Cc1ccc(NC2CNC2)cc1C(=O)N[C@H](C)c1cccc(-c2ccc(CN3CCCC3)s2)c1 | SARS-CoV-2 | viral replication |  |  | EC50 | 1.2 µM
C[C@@H](NS(=O)(=O)c1cccc(N)c1)c1cccc2ccccc12 | SARS-CoV-2 |  |  |  | EC50 | 64 µM
C=C(CC)C(=O)c1ccc(OCC(=O)Nc2cccc3cn(C)nc23)c(Cl)c1Cl | SARS-CoV-2 | viral replication |  |  | EC50 | 4.8 µM

Some of these lines once more:
Compound | tested on | assay | system | setting | measurement | value
Cc1ccc(CN)cc1C(=O)N[C@H](C)c1cccc2ccccc12 | SARS-CoV-2 |  |  |  | EC50 | 24 µM
Cc1ccc(NC2CNC2)cc1C(=O)N[C@H](C)c1cccc(-c2ccc(CN3CCCC3)s2)c1 | SARS-CoV-2 | viral replication |  |  | EC50 | 1.2 µM
